Assay results from different studies.
Lines come from different studies, so protocols differ. ± gives the spread as reported.

SMILES | cell line | test | conditions | IC50
COCC12CN(C)C3C4C(OC)C1C3(C(OC)CC2O)C1(O)CC2(O)C(OC)C(O)C4(O)C1C2OC(=O)c1ccccc1 (centres unmarked) | HBE | cell growth or viability, MTT |  | 21.6 µM
Cc1c(C)n(-c2c(C(C)C)cccc2C(C)C)c(=[Se])n1-c1c(C(C)C)cccc1C(C)C.[Cl][Ag] | human ovarian cancer cells | cell viability, MTT | 72 h | 3 ± 0.9 µM
O=[N+]([O-])[O-].[NH3+][Pt-2]1([NH3+])[O]C(C(F)(F)F)=CC(c2ccccc2)=[O+]1 (centres unmarked) | U2OS | cell growth or viability, MTT |  | 1.6 µM
N=C(N)NCCC[C@H](N)C(=O)N[C@@H](CC(=O)N[C@@H](CC(=O)O)c1cccc2ccccc12)c1cccc2ccccc12 | MCF-7 (no HER2 overexpression) |  |  | > 50 µM
Cc1ccc(C(=O)NCCNC(=O)[C@@]2(C)[C@H](O)CC[C@@]3(C)[C@H]2CC[C@]2(C)[C@@H]3C(=O)C=C3[C@@H]4[C@@H](C)[C@H](C)CC[C@]4(C)CC[C@]32C)cc1 | HBE | cell growth or viability, MTT | 48 h | 5.74 µM
C#CCOc1ccc(-c2n(CC(=O)O[C@@H]3C[C@H](C)CC[C@H]3C(C)C)c3ccccc3[n+]2C)cc1N=[N+]=[N-] | mouse glioblastoma HTS cells | cell viability, CellTiter-Glo | 96 h | ~0.35 µM
CCCC(=O)Oc1c(C)c(OC)c2c(/C=C/c3ccccc3)c(CC)c(=O)oc2c1C | FaDu | cell growth or viability, SRB | 72 h | > 50 µM
Cc1ccc(-c2nn(-c3ccccc3)cc2/C=C(\C#N)c2nc3ccccc3[nH]2)cc1 | SW1990 | cell growth or viability, ATP luminescence | 72 h | > 100 µM
N[C@@H](CCC(=O)N[C@@H](CS[Se]Cc1ccc(-c2cc(C(F)(F)F)nn2-c2ccc(S(N)(=O)=O)cc2)cc1)C(=O)NCC(=O)O)C(=O)O | WM-115 melanoma cells | cell viability, MTS | 24 h, vertical stage | 30.1 ± 3.3 µM
C=C1C(=O)[C@@]23CC[C@@H]4[C@](C)(COC(C)=O)CCC[C@@]4(C)[C@@H]2[C@@H](O)C[C@@H]1C3 (single isomer, unassigned) | HBE | cell growth or viability, MTT |  | 8.1 µM
O=C(NCC1(c2nc(-c3ccccc3)cs2)CCOCC1)c1cccc(-c2noc(C(F)(F)F)n2)c1 | NB-4 | cell growth or viability, CCK-8 | 5 days | > 10 µM
CCOP(=O)(OCC)C(Cc1cc(F)c(F)c(F)c1)Nc1ccccc1 (centres unmarked) | T98G | cell growth or viability, MTT | 48 h | 25.1 µM
CC(C)(C(=O)O)C1(O)CCCCC1 | Fem-X | cell growth or viability | 72 h | > 200 µM
C=CC(OC(C)=O)c1ccccc1 (centres unmarked) | HSC-4 | MTT | 24 h | > 50 µM
Cc1cc(C)cc(/C=N/NC(=N)N/N=C/c2cc(C)cc(C)c2)c1 | KP-4 | cell growth, crystal violet | 72 h | 29.1 ± 3.5 µM
COc1ccc2cc3[n+](cc2c1OCc1cn(Cc2ccc(Cl)cc2F)nn1)CCc1cc2c(cc1-3)OCO2 | SW1990 | cell growth or viability, MTT |  | 38.9 µM
COc1ccc([C@@H]2CC(=O)c3c(O)cc(O[C@@H]4O[C@H](CO[C@@H]5O[C@@H](C)[C@H](O)[C@@H](O)[C@H]5O)[C@@H](O[C@H]5O[C@H](CO)[C@@H](O)[C@H](O)[C@H]5O)[C@H](O)[C@H]4O)cc3O2)cc1O | A549 | cell growth or viability, MTS | 72 h | 54.6 µg/mL
CC1CC(=O)NN=C1c1ccc(NC(=O)N2Cc3ccncc3C2)cc1 (centres unmarked) | MDA-MB-453 | cell growth or viability, ATP luminescence |  | 0.00065 µM
CCCC(CCC)C(=O)[O][Pt]([NH2])([NH2])([Cl])([Cl])[O]C(=O)C(C)c1ccc(CC(C)C)cc1 (centres unmarked) | BCPAP | cell growth or viability, MTT | 72 h | 0.68 µM
Cc1ccc(CC(=O)N(CCCn2ccnc2)c2nc3ccccc3s2)c(C)c1 | SW620 tumour organoids | cell viability | 72 h, 2% Matrigel, 0.4% DMSO | 28.3 µM

Excerpt of the above:
SMILES | cell line | test | conditions | IC50
CCCC(CCC)C(=O)[O][Pt]([NH2])([NH2])([Cl])([Cl])[O]C(=O)C(C)c1ccc(CC(C)C)cc1 (centres unmarked) | BCPAP | cell growth or viability, MTT | 72 h | 0.68 µM
